{"data": "Earlier results, collected from citations in different studies", "note": "Protocols differ between the studies behind these lines. Numbers after ± are the reported error.", "sequence of UniProt P0DOF5 (whole entry, looked up)": "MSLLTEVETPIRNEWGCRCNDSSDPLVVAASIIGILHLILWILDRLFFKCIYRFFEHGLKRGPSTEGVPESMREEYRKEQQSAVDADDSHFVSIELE"}
{"Substance": "CC(CN(C)C)CN1c2ccccc2CCc2ccccc21 (stereo not drawn)", "tested on": "Ebola virus", "assay": "pseudovirus entry, HIV pseudotype reporter", "system": "A549", "measurement": "IC50", "value": "11.1 µM"}
{"Substance": "CC(C)(C)[C@H](NC(=O)C(F)(F)F)C(=O)N1C[C@H]2[C@@H]([C@H]1C(=O)N[C@H](C#N)C[C@@H]1CCNC1=O)C2(C)C", "tested on": "Calu-3", "assay": "cytotoxicity", "measurement": "CC50", "value": "> 100 µM"}
{"Substance": "Z-FA-FMK", "tested on": "Replicase polyprotein 1ab, main protease (rep, Severe acute respiratory syndrome coronavirus 2, UniProt P0DTD1)", "assay": "gain-of-signal", "measurement": "IC50", "value": "> 25 µM"}
{"Substance": "C[C@@H]1CCO[C@H]2Cn3cc(C(=O)NCc4ccc(F)cc4F)c(=O)c(O)c3C(=O)N12", "tested on": "HIV-1", "assay": "viral replication", "system": "integrase R263K mutant", "measurement": "EC50", "value": "0.011 ± 0.003 µM"}
{"Substance": "M2 (Influenza A virus, UniProt P0DOF5)", "assay": "NMR, item: His37", "setting": "tetramer, highest pKa, closed state", "measurement": "pKa", "value": 8.2}
{"Substance": "C[C@@H]1C[C@H]2[C@@H]3CCC4=CC(=O)C=C[C@]4(C)[C@@]3(F)[C@@H](O)C[C@]2(C)[C@@]1(O)C(=O)CO", "system": "human, plasma", "setting": "oral, 20 mg", "measurement": "Cmax", "value": "257 ng/mL"}
{"note": "Repeated from above:"}
{"Substance": "M2 (Influenza A virus, UniProt P0DOF5)", "assay": "NMR, item: His37", "setting": "tetramer, highest pKa, closed state", "measurement": "pKa", "value": 8.2}
